Measured values gathered from unrelated publications.
Each line is one published result; not all experiments were run side by side. ± marks the error that the study gave.

C(=C/c1ccccc1)/c1ccccc1 — IC50 (THP-1; cell growth or viability, ATP luminescence; 24 h): 45000 nM
COc1c(O)c(Br)c2oc3c(Br)c(O)c(CCC(C)C)c(O)c3c(=O)c2c1CCC(C)C — IC50 (BEAS-2B; cell growth or viability): 20700 nM
COc1cc(CNC(=O)C[C@H](C)CCC=C(C)C)ccc1OCc1cn(-c2ccc(F)cc2)nn1 — growth percent (SW-620; SRB; 10 µM, 48 h): 101%
COc1cc(OC)cc(C2=C3C(C)=C(I)C(/C=C/c4c[nH]c5ccccc45)=[N+]3[B-](F)(F)n3c(/C=C/c4c[nH]c5ccccc45)c(I)c(C)c32)c1 — IC50 (HEp-2; phototoxicity, CellTiter-Blue; together with: light 1.5 J/cm^2): > 100000 nM
COc1cc(N(C)CCN(C)C)c(NC(=O)/C=C/c2ccc(Cl)cc2)cc1Nc1nccc(-c2cn(C)c3ccccc23)n1 — IC50 (NCI-H1975; cell growth or viability, MTT; 72 h): 251 nM
Cc1ccc(CNC(=O)C(CCc2ccccc2)NC(=O)C(NC(=O)c2ccc(OCc3ccc(C(C)(C)C)cc3)cc2)C(C)O)cc1 (stereo not shown) — IC50 (Karpas-1106P; proteasome β5 activity, inhibitor, Proteasome-Glo β5; 1 h): 310 ± 150 nM
CSc1nc(Nc2cccc(/C(C)=N/NC(=O)c3cccc(Cl)c3)c2)c(C#N)c(-c2ccccc2)n1 — IC50 (HCT-116 and MCF7; cell growth, MTT; range over compound group): 9250 to 15300 nM
COc1cc(N(C)CCN(C)C)c(NC(=O)/C=C/c2ccc3ccccc3c2)cc1Nc1nccc(-c2cn(C)c3ccccc23)n1 — IC50 (NCI-H1975; cell growth or viability, MTT; 72 h): 577 nM
CC1(C)CCC(CN2CCN(c3ccc(C(=O)NS(=O)(=O)c4ccc(NCC5COCCO5)c([N+](=O)[O-])c4)c(N4CCCOc5nc6[nH]ccc6cc54)c3)CC2)=C(c2ccc(Cl)cc2)C1 (stereo not shown) — IC50 (OSU-CLL; cell viability, CellTiter-Glo; 72 h): 0.26 nM
CN1CCC(N[C@@H]2CCc3[nH]c4c(C(N)=O)ccc(-c5ccccc5Cl)c4c3C2)CC1 — IC50 (colorectal cancer organoid sample E; cell growth, CellTiter-Glo; 6 days): 8.3 nM
COc1cc(CNC(=O)C[C@H](C)CCC=C(C)C)ccc1OCc1cn(-c2ccccc2F)nn1 — growth percent (SF-268 CNS cancer cells; SRB; 10 µM, 48 h): 58.9%
COCCOCCOCCOc1ccc(/C=C/c2c(I)c(C)c3n2[B-](F)(F)[N+]2=C(C)C(I)=C(C)C2=C3c2cc(OC)cc(OC)c2)cc1 — IC50 (HEp-2; phototoxicity, CellTiter-Blue; together with: light 1.5 J/cm^2): 3800 nM
CC1=C2[O][Ru-]([Cl])[O+]=C2C=CN1CCCCCCCCCCCCN1C=CC2=[O+][Ru-]([Cl])[O]C2=C1C.Cc1ccc(C(C)C)cc1.Cc1ccc(C(C)C)cc1 — IC50 (KYSE70-oxo oxoplatin-resistant; crystal violet; 96 h): 1800 ± 1200 nM

A few entries again:
C(=C/c1ccccc1)/c1ccccc1 — IC50 (THP-1; cell growth or viability, ATP luminescence; 24 h): 45000 nM
COc1cc(N(C)CCN(C)C)c(NC(=O)/C=C/c2ccc(Cl)cc2)cc1Nc1nccc(-c2cn(C)c3ccccc23)n1 — IC50 (NCI-H1975; cell growth or viability, MTT; 72 h): 251 nM
